Assay results collected from several papers.
Every numbered part comes from another study and shows a few of its results, in no order. Substitutions count along the parent as printed.

Sample 1 — method: protein binding microarray; molecule type: double-stranded DNA, one strand shown; matrix: in vitro; tested at: not given; reference: not given; reading: higher = stronger binding
Target: Histone acetyltransferase KAT6A, winged helix 1, GST fusion (KAT6A, Homo sapiens, UniProt Q92794, residues 1-85)
Notes: 8-mer, flanks averaged, mean of 2 arrays, mostly near background
Construct (chain): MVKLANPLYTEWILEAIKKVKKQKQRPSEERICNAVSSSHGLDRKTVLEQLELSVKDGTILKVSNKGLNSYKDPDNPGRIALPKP
Strand | E-score
CTAGGACC | -0.115
CAAGACGC | 0.0874
CTAAACAG | -0.139
CAATTTGA | -0.217
CCACGGGA | 0.261
TTCAACAA | -0.0792
ATACAATG | -0.0963
ATAGTCGA | -0.184
AATAAGTA | -0.18
ATATTGGC | -0.128
ATCGTAGA | -0.161
CGTAAGTA | 0.0844
GGCGCTCA | 0.326
ATCTCACC | 0.000905
CGGGTCGC | 0.416
AGTAGTTG | -0.0519
TACATCAA | -0.14
GTTCCGGA | -0.0644
AAACCTTG | -0.249
CGGGTTCA | 0.325
AGTCAATA | -0.097
CGCGGCTC | 0.415
CTAAATTA | 0.00362
CATCGCGC | 0.369
ATTCCTGC | -0.026

Sample 2 — target: CCNA2, cyclin fold, Cln2 fusion (human); method: yeast growth competition, sequencing; matrix: yeast; notes: strong parent motif; reference: not given; reading: higher = stronger binding
Starting sequence: SCAPER docking peptide (human); SNARRSLNFGGST
Variant | normalised enrichment score
SNARRSLNFGGKT [S12K] | 6.17
FNARRSLNFGGST [S1F] | 6.75
SNARKSLNLGGST [R5K F9L] | 1.34
SNARRSVNFGGST [L7V] | 0.537
SNARRSLNFGGSI [T13I] | 5.96
SNARRSLNFTGST [G10T] | 6.2
SNARRSLNMGGST [F9M] | 3.62
SNAERSLNFGGST [R4E] | -0.638
SNAGRSLNFGGST [R4G] | 0.632
SWARRSLNFGGST [N2W] | 4.74
SNYRRSLNFGGST [A3Y] | 3.87
SNARRCLNFGGST [S6C] | 6.2
SNMRRSLNFGGST [A3M] | 2.89
SNARRSLNFGGSK [T13K] | 6.73
SNARRSLDFGGST [N8D] | 5.78
SNARRSLNFGGNT [S12N] | 6.75
SNARRSLYFGGST [N8Y] | 5.76
SNARRSNNFGGST [L7N] | 0.812
SNARTSLNFGGST [R5T] | 1.9
SNARRSYNFGGST [L7Y] | 1.05
SNARRSLNFGMST [G11M] | 6.38
CNARRSLNFGGST [S1C] | 6.84
SNARRFLNFGGST [S6F] | 6.16
SNADRSLNFGGST [R4D] | 0.162
SNARRSLNFGGSL [T13L] | 6.49

Sample 3 — target: UBE2N UBC core domain (UniProt P61088); method: yeast two-hybrid; matrix: yeast; notes: mostly zero background; reference: not given; reading: higher = stronger interaction
UniProt P61088, sequence (whole entry, looked up): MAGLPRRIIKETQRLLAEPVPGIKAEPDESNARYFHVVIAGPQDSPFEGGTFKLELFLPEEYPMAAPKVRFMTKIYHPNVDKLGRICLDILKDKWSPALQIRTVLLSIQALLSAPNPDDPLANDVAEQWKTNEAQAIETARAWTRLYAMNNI
B1: RNF2 RING domain (UniProt Q99496); chain SPRSLHSELMCPICLDMLKNTMTTKECLHRFCADCIITALRSGNKECPTCRKKLVSKRSLR
B2: RNF122 RING domain (UniProt Q9H9V4); chain AKKLQLYGQTCAVCLEDFKGKDELGVLPCQHAFHRKCLVKWLEVRCVCPMCNKPIASPSEAT
B3: TRIM26 RING domain (UniProt Q12899); chain PLRSLEEEVTCSICLDYLRDPVTIDCGHVFCRSCTTDVRPISGSRPVCPLCKKPFKKENIRP
B4: DEF8 RING domain (UniProt Q6ZN54); chain AGRLGCSLTEIHTLFAKHIKLDCERCQAKGFVCELCREGDVLFPFDSHTSVCADCSAVFHRDCYYDNSTTCPKCARLSLRK
B5: TRIM37 RING domain (UniProt O94972); chain SVESIAEVFRCFICMEKLRDARLCPHCSKLCCFSCIRRWLTEQRAQCPHCRAPLQLRELVN
B6: MKRN2 RING domain (UniProt Q9H000); chain FAFQASQDKVCSICMEVILEKASASERRFGILSNCNHTYCLSCIRQWRCAKQFENPIIKSCPECRVISEFVIPSV
B7: RNF152 RING domain (UniProt Q8N8N0); chain ETLSQDSLLECQICFNYYSPRRRPKLLDCKHTCCSVCLQQMRTSQKDVRCPWCRGVTKLPPGFS
B8: RNF31 RING domain (UniProt Q96EP0); chain AFLRRLLAQECAVCGWALPHNRMQALTSCECTICPDCFRQHFTIALKEKHITDMVCPACGRPDLTDDTQLL
B9: TRIM22 RING domain (UniProt Q8IYM9); chain VKVDIEKEVTCPICLELLTEPLSLDCGHSFCQACITAKIKESVIISRGESSCPVCQTRFQPGNLRP
B10: ANAPC11 RING domain (UniProt Q9NYG5); chain GICRMAFNGCCPDCKVPGDDCPLVWGQCSHCFHMHCILKWLHAQQVQQHCPMCRQEWKFKE
Molecule | lacZ reporter activity
B1 (RNF2 RING domain) | 0
AEADPLGRFTCPVCLEVYEKPVQVPCGHVFCSACLQECLKPKKPVCGVCRSALAPGVRAV (RNF114 RING domain (UniProt Q9Y508)) | 0
B2 (RNF122 RING domain) | 0
B3 (TRIM26 RING domain) | 0
B4 (DEF8 RING domain) | 0
YCEMGSTFQLCKICAENDKDVKIEPCGHLMCTSCLTAWQESDGQGCPFCRCEIKGTEPII (CBLB RING domain (UniProt Q13191)) | 0
LDAASGHPLVCPLCHGQYERPCLLDCFHDFCTGCLRGRATDGRLSCPLCQHQTLVKGPSG (Rnf207 RING domain (UniProt Q3V3A7)) | 0
RYRQMEERITCPICIDSHIRLVFQCGHGACAPCGSALSACPICRQPIRDRIQIF (MIB2 RING domain (UniProt Q96AX9)) | 0
MNDVLENELQCIICSEYFIEAVTLNCAHSFCSYCINEWMKRKIECPICRKDIKSKTYSL (RNF8 RING domain (UniProt O76064)) | 0
B5 (TRIM37 RING domain) | 0
B6 (MKRN2 RING domain) | 0
B7 (RNF152 RING domain) | 10800
B8 (RNF31 RING domain) | 0
B9 (TRIM22 RING domain) | 0
B10 (ANAPC11 RING domain) | 0
QVQSRTKIEECVVCSDKKAAVLFQPCGHMCACENCANLMKKCVQCRAVVERRVPFI (MIB1 RING domain (UniProt Q86YT6)) | 0

Sample 4 — target: CREBZF, bZIP domain (human); method: DHFR protein complementation; matrix: yeast; reference: wild-type JUN-FOS pair; reading: higher = stronger binding
Notes: single substitutions, most at no-binding floor
Starting sequence: JUN, bZIP domain (human); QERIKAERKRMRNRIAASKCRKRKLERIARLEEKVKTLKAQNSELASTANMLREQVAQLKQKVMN; partner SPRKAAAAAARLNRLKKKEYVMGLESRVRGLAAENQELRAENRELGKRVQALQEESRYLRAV
Variant | binding fitness
E32F | -1.43 natural log
L38V | -1.51 natural log
M51S | -1.43 natural log
L45S | -1.48 natural log
V56G | -1.49 natural log
K36T | -1.59 natural log
T37N | -1.19 natural log
M51T | -1.19 natural log
K39A | -1.36 natural log
L38S | -1.47 natural log
L52R | -1.53 natural log
I28T | -1.41 natural log
E54A | -1.44 natural log
A46E | -1.32 natural log
R30N | -1.49 natural log
A49Y | -1.56 natural log
V35A | -1.49 natural log
L31P | -1.39 natural log
E44T | -1.36 natural log
S43D | -1.5 natural log
K39Q | -1.51 natural log
S43E | -1.44 natural log
T37Q | -1.45 natural log

Sample 5 — method: DHFR PCA, deep sequencing; matrix: yeast; together with: (+)-ABA 4.8 µM; reference: wild-type fitted maximum; reading: higher = stronger binding
Target: ABI1, truncated, D143A, DHFR fusion (Arabidopsis thaliana)
Notes: methotrexate growth selection, single substitutions
Starting sequence: PYL1, truncated, DHFR fusion (Arabidopsis thaliana); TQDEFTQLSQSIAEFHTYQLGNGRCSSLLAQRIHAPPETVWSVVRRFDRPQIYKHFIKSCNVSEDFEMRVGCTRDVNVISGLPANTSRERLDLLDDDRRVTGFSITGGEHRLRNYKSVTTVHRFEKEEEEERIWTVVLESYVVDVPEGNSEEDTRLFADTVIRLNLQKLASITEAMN
Variant | relative binding score
A170D | 4.68%
F15R | 8.48%
N177M | 87.8%
E38W | 35.7%
E131F | 59.7%
E151N | 47.9%
L156Q | 45.2%
S140G | -7.14%
F157M | 18.2%
F103D | -5.57%
S104P | -8.42%
E4W | 66.4%
I162T | -4.69%
N85T | 90%
T154W | 5.38%
R88Q | 75.6%
V145D | -14.2%
Y141T | -5.71%
S150N | 68.1%
G148M | 19.1%
T135C | 63.6%
R74K | -13.4%
T73D | -0.174%
V161S | -11.1%

Sample 6 — method: aptamer microarray, sandwich; molecule type: DNA with 2'F-ANA; matrix: in vitro; tested at: 200 nM; together with: Cy3 exosite-II aptamer, 400 nM; reading: higher = stronger binding; strand: GGTTGGTGTGGTTGG
Target: Prothrombin, mature alpha-thrombin (F2, Homo sapiens, UniProt P00734)
Notes: whole 15-mer aptamer, many near background
Modification | mean fluorescence intensity
2'F-ANA at 2 4 5 6 8 11 12 | 121 a.u.
2'F-ANA at 1 5 7 8 10 11 12 13 14 15 | 46.3 a.u.
2'F-ANA at 1 2 5 7 8 10 12 14 | 43.7 a.u.
2'F-ANA at 3 4 5 6 8 10 11 12 13 | 65.5 a.u.
2'F-ANA at 1 2 6 7 8 11 13 | 124 a.u.
2'F-ANA at 7 9 11 15 | 456 a.u.
2'F-ANA at 1 3 5 8 10 11 12 13 | 48.7 a.u.
2'F-ANA at 1 2 7 11 14 | 52.8 a.u.
2'F-ANA at 1 2 7 8 9 12 15 | 499 a.u.
2'F-ANA at 8 10 11 12 13 14 15 | 101 a.u.
2'F-ANA at 4 5 6 7 10 11 12 15 | 49.7 a.u.
2'F-ANA at 1 3 4 5 7 8 9 10 11 12 13 | 50.2 a.u.
2'F-ANA at 3 4 6 7 8 9 10 12 13 14 15 | 152 a.u.
2'F-ANA at 4 7 8 | 557 a.u.
2'F-ANA at 3 5 7 13 14 15 | 56.6 a.u.
2'F-ANA at 1 2 7 11 12 13 15 | 223 a.u.
2'F-ANA at 2 4 5 6 10 11 12 13 14 15 | 45.9 a.u.
2'F-ANA at 2 3 4 5 9 10 11 12 14 15 | 49.3 a.u.

Excerpt of the above (sample 1):
Strand | E-score
ATATTGGC | -0.128
ATCGTAGA | -0.161
CGTAAGTA | 0.0844
GGCGCTCA | 0.326
ATCTCACC | 0.000905
CGGGTCGC | 0.416
AGTAGTTG | -0.0519
TACATCAA | -0.14
GTTCCGGA | -0.0644
AAACCTTG | -0.249
CGGGTTCA | 0.325
AGTCAATA | -0.097
CGCGGCTC | 0.415
CTAAATTA | 0.00362
CATCGCGC | 0.369
ATTCCTGC | -0.026
